Published values of several laboratories.
Protocols differ between the studies behind these lines. “And” joins repeats or separate records; there may be more than shown. Numbers after ± are the reported error. ≈ marks a conversion by molar mass, not a printed value.

Compound	cell line	test	test system	conditions	scale	measurement	value
CN1CCN(C2(CNC3CCN(c4cccc(-c5cc6cc(F)ccc6[nH]5)c4)CC3)CCC2)CC1	SN12C					CC50	7.93 µM
CCN(CC)c1ccc(C=NNC(=O)CSc2nc3ccccc3c(=O)n2Cc2ccc(S(N)(=O)=O)cc2)c(O)c1	EKVX	NCI five-dose screen				CC50	> 100 µM
Cc1cc(C(C)(C)c2ccc(O)c(C)c2)ccc1O	HepG2 spheroids	Hoechst flow cytometry		40 µM, 24 h		G1 phase cells	73.3 ± 5.24%
C[C@@H](O)[C@H]1C(=O)N2C(C(=O)O)=C(S[C@@H]3CN[C@H](C(=O)N(C)C)C3)[C@H](C)[C@H]12	Escherichia coli DH5α expressing KPC-2	bacterial growth				MIC	4 mg/L (≈ 10.4 µM)
C[C@]12CC[C@H](O)C[C@H]1CC[C@@H]1[C@@H]2CC[C@]2(C)[C@@H](c3ccc(=O)oc3)CC[C@]12O	MCF7	RT-qPCR, refers to: NRIP1		20 nM, 48 h, without estradiol, unit not given	relative to: untreated	mRNA level	0.598 and 0.594 and 0.596
COc1cc(CCC[P+](c2ccccc2)(c2ccccc2)c2ccccc2)c(OC)c2c1OCO2.[I-]	SK-MEL-5	SRB				LC50	-5.29 log M
CN1C(=O)[C@@]23C[C@]4([C@]56C[C@@]78SS[C@@](CO)(C(=O)N7[C@H]5Nc5ccccc56)N(C)C8=O)c5ccccc5N[C@@H]4N2C(=O)[C@]1(CO)SS3	OCI-Ly1			1 µM, 120 h		viability	0.477%
COc1ccc2c(c1)[nH]c1c(C)nccc12	DU-145	bisulfite pyrosequencing, refers to: RASSF1A promoter CpG site 27		concentration not given	relative to: vehicle	methylation reduction	0.4%
Ic1cccc2cnccc12	mouse DRG neurons, wild type			30 µM, 2 h, readout at 48 h, together with: rotenone 25 µM, 3 h pulse		neuronal cell death	≤ 22%
O=[N+]([O-])c1ccc(Cl)cc1	human cells	reporter gene, agonist, luciferase reporter			relative to: positive control	fitted curve top	0%
Nc1ncc(-c2nc(N3CCOCC3)nc(N3CCOCC3)n2)c(C(F)F)n1	CAL-27			72 h		GI50	0.189 µM
N[C@@H]1C[C@H]1c1ccccc1	OCI-Ly1			0.5 µM, 120 h		viability	164%
Oc1cc(Cl)ccc1Oc1ccc(Cl)cc1Cl	HepG2	refers to: NF-κB nuclear translocation		24 h, distribution mode 1		point of departure	1.78 µM
COc1c(CCC[P+](c2ccccc2)(c2ccccc2)c2ccccc2)cc2c(c1OC)OCO2.[I-]	HOP-92	SRB				LC50	-4.22 log M
O=C1CCP(=S)(c2ccccc2)CC1	HCT-116	Annexin V-FITC/PI flow cytometry		IC50, 72 h		late apoptotic cells	80.2%
O=S(=O)(c1ccc(O)cc1)c1ccc(O)cc1	HepG2 spheroids	flow cytometry		concentration not given, 96 h		cell cycle distribution	no effect
COc1cc(C(=O)c2c[nH]c3cc(-c4cccc(O)c4)ccc23)cc(OC)c1OC	MDA-MB-231			100 nM, 20 h		rounded cells	> 90%
COc1cc(C[C@H]2COC(=O)[C@@H]2Cc2ccc(O)c(OC)c2)ccc1O	neuroblastoma M2 (+)	western blot		IC50	relative to: untreated	PCNA level	decreased
C/C=C(/C)C(=O)O[C@H]1C(C)=C2[C@H]([C@@H]1OC(=O)CCCCCCC)[C@@](C)(OC(C)=O)C[C@H](OC(=O)CCC)[C@@]1(O)[C@H]2OC(=O)[C@@]1(C)O	HEK293T	RNA-seq, refers to: CBX4 mRNA		10 µM, 6 h	relative to: vehicle	log2 fold change	0.441
Cc1cnc2ccc3c(nc(N)n3C)c2n1	BALB/c 3T3	colony formation		50 µM		plating efficiency	45%

Compound	cell line	test	test system	conditions	scale	measurement	value
CCC(=O)CCCCC[C@@H]1NC(=O)[C@H]2CCCCN2C(=O)[C@H]([C@@H](C)CC)NC(=O)[C@H](Cc2cn(OC)c3ccccc23)NC1=O	OCI-Ly1			0.1 µM, 120 h		viability	96.7%
Cn1nccc1Nc1nccc(-c2cc3c(s2)C(C)(C)N(CCN2CCOCC2)C3=O)n1	HCT116	IncuCyte		concentration not given, 20 (unit not given)		PI-positive cells	5.83 count and 7.33 count and 5.17 count
CCOP1(=O)CC=Cc2cc(N)ccc2O1 (stereo not shown)	A-375	cell proliferation, MTT		100 µM, 72 h, normoxia		maximal inhibition	10 to 15%
Nc1ncnc2c1ncn2[C@@H]1O[C@@H]2COP(=O)(O)O[C@H]3[C@@H](O)[C@H](n4cnc5c(=O)[nH]cnc54)O[C@@H]3COP(=O)(O)O[C@H]2[C@H]1O	HFF-1	RNA sequencing Reactome analysis, refers to: Reactome R-HSA-1236974 ER-phagosome pathway		together with: West Nile virus infection	relative to: West Nile virus infected cells, upregulated pathway	pathway fold enrichment	4.77
Cn1cncc1C1=CN(c2ncnc3[nH]cnc23)CCS1	UACC-257			melanoma cell line		CC50	> 200 µM
CC#C[C@]1(O)CC[C@H]2[C@@H]3CCC4=CC(=O)CCC4=C3[C@@H](c3ccc(N(C)C)cc3)C[C@@]21C	zebrafish AB.9 GRE:Luc cells	glucocorticoid reporter gene, antagonist		5 nM, together with: 10 nM dexamethasone		inhibition	inhibited
CC(c1ccccc1)(c1ccc(O)cc1)c1ccc(O)cc1	HepG2 spheroids	Hoechst flow cytometry		0.01 µM, 96 h		G2 phase cells	15.4 ± 7.51%
O=C(Nc1ccc2[nH]nc(-c3ccncc3)c2c1)[C@@H]1CCN(CC(=O)N2CCN(c3ccc(-c4ncccn4)cc3)CC2)C1	HCT116	IncuCyte		concentration not given, 16 (unit not given)		PI-positive cells	4.67 count and 3.75 count and 3.92 count
Cc1nn(-c2nc3ccc(Cl)c(Cl)c3[nH]2)c(O)c1C1OC(=O)c2ccccc21 (stereo not shown)	RAW-ISG	CCK-8		30 µM		viability	92.5% and 102% and 103% and 104%
COc1ccc([C@H]2c3[nH]c4ccc(Cl)cc4c3CCN2C(=O)Oc2ccc(Cl)cc2)cc1	human dermal fibroblasts with PBMC	cytokine secretion, refers to: sVEGF		0.01 µM, 48 h		inhibition	84%
COc1c(C)c2c(c(O)c1C/C=C(\C)CCC(=O)O)C(=O)OC2	A673	cell proliferation	muscle cancer			IC50	0.589 µM
C=C1CC[C@@H]2[C@](C)(CCC[C@]2(C)C(=O)O)[C@H]1CC/C(C)=C/CO	neuroblastoma M2 (+)	western blot		IC50	relative to: untreated	PCNA level	decreased
Cn1cc2cc(C(F)(F)c3nnc4ccc(-c5cnn(C6CC6)c5)nn34)c(F)cc2n1	MKN-45	PI flow cytometry		200 nM, 24 h		cells in S phase	4.09% and 6.79% and 4.31%
Cn1cc(-c2ccc(-c3cncc(Cl)c3N3CCC4(CCNC4=O)CC3)cc2)cn1	COLO 205	gene expression, microarray, refers to: BIRC5 mRNA		concentration not given, 6 h	relative to: untreated cells	log2 fold change	-3.3
Nc1nc2nc[nH]c2c(=S)[nH]1	HCT-116 3-6	clonogenic		2.5 µM, 10 days		surviving fraction	0.175
Oc1ccc(C(c2ccc(O)cc2)(C(F)(F)F)C(F)(F)F)cc1	HepG2 spheroids	Hoechst flow cytometry		0.01 µM, 96 h		S phase cells	10.2 ± 2.55%
CCOC(=O)C1=C(N)N(c2ccc(C(=O)OCC)cc2)C(O)=C(C#N)C12C(=O)Nc1ccccc12 (stereo not shown)	Caco-2	qRT-PCR, refers to: Bcl-2		IC50	relative to: untreated	mRNA fold change	0.275
CC(C)N1CCC(NC2CCN(c3cccc(-c4cc5cc(F)ccc5[nH]4)c3)CC2)CC1	HOP-92					CC50	6.83 µM
O=C1CCP(=[Se])(c2ccccc2)CC1	HCT-116	MTT		72 h	relative to: IC50 HaCaT over IC50 HCT-116	selectivity index	1
CC[C@H](C)[C@H](NC(=O)CNC(=O)[C@@H](N)CCCCN)C(=O)N[C@@H](CC(C)C)C(=O)N[C@@H](CCCCN)C(=O)N[C@@H](CCCNC(=N)N)C(=O)N[C@@H](CCC(=O)O)C(=O)N[C@@H](CCCCN)C(=O)N[C@@H](CCCNC(=N)N)C(=O)N[C@@H](CC(C)C)C(=O)N[C@@H](CCCNC(=N)N)C(=O)N[C@@H](CCCNC(=N)N)C(=O)N[C@@H](CCCCN)C(=O)N[C@@H](CC(N)=O)C(=O)N[C@H](C(=O)N[C@@H](Cc1c[nH]cn1)C(=O)N[C@@H](Cc1c[nH]c2ccccc12)C(=O)N1CCC[C@H]1C(=O)N[C@@H](CCC(=O)O)C(=O)N[C@@H](CCC(=O)O)C(=O)NCC(=O)N[C@@H](CCCCN)C(=O)N[C@@H](CC(C)C)C(=O)N[C@@H](CCCNC(=N)N)C(=O)N[C@@H](CCC(=O)O)C(=O)N[C@@H](Cc1ccccc1)C(=O)N[C@@H](Cc1ccccc1)C(=O)N[C@@H](Cc1ccccc1)C(=O)N[C@@H](Cc1ccccc1)C(=O)N[C@@H](CCC(=O)O)C(=O)N[C@@H](CC(C)C)C(=O)N[C@@H](CC(=O)O)C(=O)N[C@@H](CCC(=O)O)C(=O)N[C@@H](C)C(=O)N[C@@H](CCC(=O)O)C(=O)N[C@@H](CCCNC(=N)N)C(=O)N[C@H](C(=O)N[C@@H](CC(N)=O)C(=O)N[C@H](C(=O)O)C(C)C)C(C)C)C(C)C	HeLa (mitotic)	protein phosphorylation, TMT phosphoproteomics, refers to: histone H3.1 Ser29	cell lysate	concentration not given, 15 min	relative to: treated over control	log2 fold change	2.66

Repeated from above:
Compound	cell line	test	test system	conditions	scale	measurement	value
Nc1nc2nc[nH]c2c(=S)[nH]1	HCT-116 3-6	clonogenic		2.5 µM, 10 days		surviving fraction	0.175
COc1c(CCC[P+](c2ccccc2)(c2ccccc2)c2ccccc2)cc2c(c1OC)OCO2.[I-]	HOP-92	SRB				LC50	-4.22 log M
CC#C[C@]1(O)CC[C@H]2[C@@H]3CCC4=CC(=O)CCC4=C3[C@@H](c3ccc(N(C)C)cc3)C[C@@]21C	zebrafish AB.9 GRE:Luc cells	glucocorticoid reporter gene, antagonist		5 nM, together with: 10 nM dexamethasone		inhibition	inhibited
CN1CCN(C2(CNC3CCN(c4cccc(-c5cc6cc(F)ccc6[nH]5)c4)CC3)CCC2)CC1	SN12C					CC50	7.93 µM
CC[C@H](C)[C@H](NC(=O)CNC(=O)[C@@H](N)CCCCN)C(=O)N[C@@H](CC(C)C)C(=O)N[C@@H](CCCCN)C(=O)N[C@@H](CCCNC(=N)N)C(=O)N[C@@H](CCC(=O)O)C(=O)N[C@@H](CCCCN)C(=O)N[C@@H](CCCNC(=N)N)C(=O)N[C@@H](CC(C)C)C(=O)N[C@@H](CCCNC(=N)N)C(=O)N[C@@H](CCCNC(=N)N)C(=O)N[C@@H](CCCCN)C(=O)N[C@@H](CC(N)=O)C(=O)N[C@H](C(=O)N[C@@H](Cc1c[nH]cn1)C(=O)N[C@@H](Cc1c[nH]c2ccccc12)C(=O)N1CCC[C@H]1C(=O)N[C@@H](CCC(=O)O)C(=O)N[C@@H](CCC(=O)O)C(=O)NCC(=O)N[C@@H](CCCCN)C(=O)N[C@@H](CC(C)C)C(=O)N[C@@H](CCCNC(=N)N)C(=O)N[C@@H](CCC(=O)O)C(=O)N[C@@H](Cc1ccccc1)C(=O)N[C@@H](Cc1ccccc1)C(=O)N[C@@H](Cc1ccccc1)C(=O)N[C@@H](Cc1ccccc1)C(=O)N[C@@H](CCC(=O)O)C(=O)N[C@@H](CC(C)C)C(=O)N[C@@H](CC(=O)O)C(=O)N[C@@H](CCC(=O)O)C(=O)N[C@@H](C)C(=O)N[C@@H](CCC(=O)O)C(=O)N[C@@H](CCCNC(=N)N)C(=O)N[C@H](C(=O)N[C@@H](CC(N)=O)C(=O)N[C@H](C(=O)O)C(C)C)C(C)C)C(C)C	HeLa (mitotic)	protein phosphorylation, TMT phosphoproteomics, refers to: histone H3.1 Ser29	cell lysate	concentration not given, 15 min	relative to: treated over control	log2 fold change	2.66
